Assay results pooled from the literature.
Every numbered part comes from another study and shows a few of its results, in no order.

Series 1 — technique: protein binding microarray; molecule type: double-stranded DNA, one strand shown; medium: in vitro; tested at: not given; relative to: not given; direction: higher = stronger binding
Target: Histone acetyltransferase KAT6A, winged helix 2, GST fusion (KAT6A, Homo sapiens, UniProt Q92794, residues 85-181)
Notes: 8-mer, flanks averaged, mean of 2 arrays, mostly near background
Construct (chain): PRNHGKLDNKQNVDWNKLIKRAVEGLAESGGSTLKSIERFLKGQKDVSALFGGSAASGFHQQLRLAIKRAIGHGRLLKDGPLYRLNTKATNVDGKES
Oligonucleotide	E-score
CACGGTCA	-0.0838
TGCCAACA	-0.0287
CATATGAA	-0.0877
ATGCTGGC	0.0164
CCATAATA	-0.152
ATGAACAC	-0.0354
CGAGCCAA	0.00662
CGCCGTAC	0.0192
AGAAGCTC	-0.121
CTCACCCC	-0.0612
ACCACGCG	-0.0585
GATACCCC	-0.0066
CGGGCGAA	0.139
ATATGATG	0.108
TATTTGGA	-0.05
GAGCTAGA	-0.113
AGCTAATC	0.167
TGGCTACA	-0.0918
ACTTACTG	-0.23
CCCCACGA	0.0755
AGGGCGAT	-0.0192
GAATCTAC	-0.0636
ACCTTGTC	-0.0185

Series 2 — technique: RNA Bind-n-Seq; molecule type: RNA; medium: in vitro; tested at: 365 nM; relative to: no-protein control; direction: higher = stronger binding
Target: RNA binding protein fox-1 homolog 2, RRM domain, GST-SBP tag (RBFOX2, Homo sapiens, UniProt O43251-10, residues 100-194)
Notes: natural RNA segment, single round, ends assumed
Residues (chain): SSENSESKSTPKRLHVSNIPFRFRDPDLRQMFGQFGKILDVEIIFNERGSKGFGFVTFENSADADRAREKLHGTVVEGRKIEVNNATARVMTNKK
Oligonucleotide	RBNS enrichment (R)
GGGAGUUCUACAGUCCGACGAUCGUAAAGCCAGCUGCUCUGGAGGCGGAGGCAGGAGGAUCUCAAAUUCAAGCCUGCUUAAGCUACUUAUAGUUCAGGGUCCGCUUAACAAUUUAUAAGACUGUGUCUUGUUCUGGAAUUCUCGGGUGCCAA	1.97
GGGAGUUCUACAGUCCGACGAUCACCACCUGUAUAGUGGGGAAGUUCAGGGAGUGCACGCCUGAGUUAUGUGCUUUGUCAUUUUCUUUGCUAAACAAAAGAGGCUAUGAAAGAACUAAAUAUGAGUACAUAAAUGGAAUUCUCGGGUGCCAA	0.692
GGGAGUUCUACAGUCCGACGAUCAGAGACGGGGUUUCACCACGUUGGCCAGGCUGGUCUUAAAUGACCCUCUUAUUUUUAACUUGGAUACCUGCUAUUCUGCCAAAAGACAAUUUCUAGAGUAGUUUUGAAUGUGGAAUUCUCGGGUGCCAA	0.271
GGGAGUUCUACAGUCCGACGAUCCACAGGCUUGGAACUCAGGGAGAAGCUAUGGCUACCACAUGGGUCCACAAGGCAGAAGGGAUCACCGGUGGCAGUCACUCGCGUUUUGUGGAGUGUGGCAGGUGGACUUGUGGAAUUCUCGGGUGCCAA	0.487
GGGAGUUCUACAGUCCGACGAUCGAUGGACCUCUUUAUAAAGUUGGUUGCUGCAAAAUCCAGUUCUUCCAAAAGCCACUUUAUUUAGGGUUUAUUCACAAGUCAUAUCCAUUUUGGUACAGUGUUUGUUUCCUUGGAAUUCUCGGGUGCCAA	0.531
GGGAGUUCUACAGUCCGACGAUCCUAAAUGGAAACUGUAGGUGGCUUCCUCUGAUCUGUCUGCCAGUGGGUGUUGCUGCCCUGCUUGUCAGCUCUGCAAAUGAGCGCUGCUCCCCAGCUUGCGCAGAGACGUGUGGAAUUCUCGGGUGCCAA	0.991
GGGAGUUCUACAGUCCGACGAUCAGAGGUUGAUGAAUGGAAAUUCUUUCACUUCAUUAUAUGCAAGUUUUCAAUAAUUAGGUCUAAGUGGAGUUUUAAGGUUACUGAUGACUUACAAAUAAUGGGCUCUGAUUUGGAAUUCUCGGGUGCCAA	0.675
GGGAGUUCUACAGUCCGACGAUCUGAUUUGAAUGUUGAUACUUUUUUUUCCUUUACAUUUCCAGUAAGUUUCUUACAGAAAGUACCUGUGAUUUUUUUUAAUGUUUAGAUUUGUAGUCUAGUCUAUUCUGAAGUGGAAUUCUCGGGUGCCAA	0.458

Series 3 — technique: RNA Bind-n-Seq; molecule type: RNA; medium: in vitro; tested at: 20 nM; notes: 6-mer, flanks averaged, single round; with: 150 mM KCl; relative to: input library; direction: higher = stronger binding
Target: TAR DNA-binding protein 43, full length, His tag (TARDBP, Homo sapiens, UniProt Q13148, residues 1-414)
Oligonucleotide	6-mer enrichment (R)
UCGUGU	0.785
CUCAAU	0.581
AUUGUA	0.652
CUCGUA	0.575
UCAUUA	0.545
AUGAAA	0.735
UGGGGU	3.47
AGAUUC	0.564
GACCUG	0.896
AAACCC	0.604
AAGACU	0.613
UCAUUG	0.597
GCCCUG	0.811
AUCCUC	0.545
UAGCCU	0.631
UUUCUU	0.647
CUCCGC	0.62
GUUACU	0.611
GUCACU	0.645
GACAUA	0.681
UACCGU	0.61
AUGGAA	0.889
GCUGUA	0.86
GCGUCG	1.41
UUUUGA	0.684

Series 4 — technique: RNA Bind-n-Seq; molecule type: RNA; medium: in vitro; tested at: not given; notes: RNA with constant flanks, ends assumed; relative to: input RNA pool; direction: higher = stronger binding
Target: RING finger protein unkempt homolog, zinc fingers 1-6, GST-SBP tag (UNK, Homo sapiens, UniProt Q9C0B0, residues 30-357)
Chain of UniProt Q9C0B0 (30-357, looked up): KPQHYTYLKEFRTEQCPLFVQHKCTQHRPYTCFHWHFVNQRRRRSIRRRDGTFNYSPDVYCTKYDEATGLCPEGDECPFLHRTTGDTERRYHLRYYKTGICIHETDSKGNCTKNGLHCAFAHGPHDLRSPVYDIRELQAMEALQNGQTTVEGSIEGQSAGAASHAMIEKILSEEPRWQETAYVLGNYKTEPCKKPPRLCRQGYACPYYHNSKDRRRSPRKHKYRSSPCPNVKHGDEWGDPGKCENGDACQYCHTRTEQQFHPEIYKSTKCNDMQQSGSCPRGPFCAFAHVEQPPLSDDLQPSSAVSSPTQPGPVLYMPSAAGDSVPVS
Oligonucleotide	bound/input enrichment [ratio]
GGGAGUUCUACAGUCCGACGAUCAACUAUUUUUCUUUGCUCAUGGGCUGGAUGGGAAUUACCCCUCCUCCAGUGCAAUGUCAUCACCGACUGUCCAUGACAGAUGAUAGCAAAAAGCAGGAUCUUAGUUCAUCUUUAACAGAUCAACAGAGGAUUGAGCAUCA	0.194
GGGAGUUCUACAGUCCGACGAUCAUGGCAACAUCAGAAGCACUCAAGAUUUCCAGAGAGGUAGAUCCAGAUGGGCGCAGAACUCCCGCUGUAAUCACUAAACUUGAUCUCAUGGAUGCGGGUACUGAUGCCAUGGAUGUAUUGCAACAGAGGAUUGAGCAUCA	0.147
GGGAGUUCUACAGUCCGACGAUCUACCAUAAUCAAAAGUUUGAAAUAUCCUGUUUCUUAAAUAAUGAGAACAUUAAUCACAUUCCGCAAGCAUUUGUACAUUCAAACCUGGAUAUUAAAGUGAAAUGAUUACUUUGAAUCACUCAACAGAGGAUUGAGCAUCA	0.18
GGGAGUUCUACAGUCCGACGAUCUUAGCUUUGUUAAAUGUAGCAACUCAGGGAGUUCAUUUAUGGGACUUGCAAGACAGAGUUUCCGUAAGGAAAUAUCAAGGUGUUACCCAAGGGUUUUAUACAAUCCACUCGUGUUUUGGACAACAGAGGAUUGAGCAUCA	0.311
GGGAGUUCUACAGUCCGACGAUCCAAGUUCCCUAUAAAUAUGAUUUAUAUGAAAAAACUUUGAAGUACAAUUCAGACUUACUCCGCAGCCGAAACUGUGUAAGAAAGAAAGGAGACGGGUGUGGUGGAUUUGGGGAACCACUUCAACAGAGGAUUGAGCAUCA	0.282
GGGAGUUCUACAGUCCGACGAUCGAUGACAAUCCAUUUGCAGAGUACAUGUGGAUGGAAAAUGAAGAAGAAUUCAACAGACAAACCGAAGAGGAGUUAUGGGAAGAAGAAUUUAUUGAACGCUGUUUCCAAGAAAUGCUGGAACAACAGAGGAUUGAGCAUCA	0.25
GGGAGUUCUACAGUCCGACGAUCCAUUUAGCAUCAUUUGGGAAAGUCAAGCAGUGUGUGAAUUUUGUGAUUGGACUUUUGAAAUCCGGUGGGCUGAUUAAUUUUUUGAUUUUCCUUCAGAGGGGAAAGUUUGCAACUUUGACACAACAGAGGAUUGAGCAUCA	0.396
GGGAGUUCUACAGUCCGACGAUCGCAAGGCAGAGCCACCAGAAGAGGGCACCUAGUUUCCAUGACAAAUAUGGGAAUGCUAUAUCCGCAGGUGGAGCCAUCUUCUGUGUUUCUACAUGGACAUAUACAGCCACACAAAUUGGACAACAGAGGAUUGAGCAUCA	0.286

Series 5 — technique: aptamer microarray, sandwich; molecule type: DNA with 2'F-ANA; medium: in vitro; tested at: 200 nM; with: Cy3 exosite-II aptamer, 400 nM; direction: higher = stronger binding; oligonucleotide: GGTTGGTGTGGTTGG
Target: Prothrombin, mature alpha-thrombin (F2, Homo sapiens, UniProt P00734)
Notes: whole 15-mer aptamer, many near background
Modification	mean fluorescence intensity
2'F-ANA at 1 4 5 6 9 11 12	87.7 a.u.
2'F-ANA at 1 5 9	58.9 a.u.
2'F-ANA at 1 2 3 4 5 6 11 12 13 14 15	56.1 a.u.
2'F-ANA at 1 3 4 7 8 9 10 11 12	91.2 a.u.
2'F-ANA at 1 2 3 6 7 10 14	69.7 a.u.
2'F-ANA at 5 6 7 9 10 14	50 a.u.
2'F-ANA at 1 2 4 7 9 11 14	50.4 a.u.
2'F-ANA at 1 2 4 9 12 13	174 a.u.
2'F-ANA at 6 9 11 12 14 15	184 a.u.
2'F-ANA at 1 8 10 11 13 14	51 a.u.
2'F-ANA at 2 4 5 6 8 9 10 11 12 15	51.9 a.u.
2'F-ANA at 4 5 6 8 9 12 13 15	106 a.u.
2'F-ANA at 1 3 5 7 9 11 15	58.8 a.u.
2'F-ANA at 1 3 4 8 10 12 14	85 a.u.
2'F-ANA at 5 6 8 10 15	56.3 a.u.
2'F-ANA at 1 2 5 11 12 13 14 15	51 a.u.
2'F-ANA at 1 5 6 7 8 9 12 14 15	62.3 a.u.
2'F-ANA at 1 2 4 5 6 7 8 10 12 14	48.9 a.u.
2'F-ANA at 1 5 6 8 9 11 12 13	78.6 a.u.
2'F-ANA at 1 4 5 6 7 9 12 13 15	66.5 a.u.
2'F-ANA at 1 3 4 6 7 8 9 13 14	81.8 a.u.
